Experimental data pooled from the literature.
Each line is one published result; not all experiments were run side by side.
CDC7 with cyclin B1: Cell division cycle 7-related protein kinase, with cyclin B1 (CDC7, Homo sapiens, UniProt O00311)
CDC7 with DBF4: Cell division cycle 7-related protein kinase, with DBF4 (CDC7, Homo sapiens, UniProt O00311)

| Compound | target | assay | test system | setting | how to read | quantity | value |
| --- | --- | --- | --- | --- | --- | --- | --- |
| C=CC(=O)Nc1cc(-c2nn(C3CCN(CCNC(=O)[C@H](C)CCC45CC6CC(CC(C6)C4)C5)CC3)c3ncnc(N)c23)ccc1Oc1ccccc1 | Cell division cycle 7-related protein kinase (CDC7, Homo sapiens, UniProt O00311) | inhibitor, KiNativ profiling | biochemical | 2 µM | – | inhibition | 14.6% |
| O=C(Cc1ccc(OCc2ccccc2)cc1)NC1(C(=O)O)CCN(C(=O)c2ccc(-c3cccc(Cl)c3)cc2)CC1 | CDC7 with cyclin B1 | kinase activity, inhibitor | – | 10 µM, with: ATP at Km | – | remaining activity | 139% |
| C=CC(=O)N1Cc2nc(-c3cc(-c4cc(Cl)cnc4Cl)c(F)cc3F)n(-c3ccncn3)c2C1 | CDC7 with DBF4 | kinome panel | – | 1 µM | – | inhibition | 2.3% |
| CN1CC[C@@H](COc2cnc(C#N)cc2-c2ccn3nc(NC(=O)C4CC4)cc3c2)C1 | CDC7 with cyclin B1 | inhibitor, KinaseProfiler panel | – | 1 µM | – | inhibition | -21% |
| CN1CCN(Cc2ccc(-c3ccc(CO[C@H]4CCC[C@@H]4NC(=O)c4cc(-c5cnn(C)c5)cnc4N)cc3)cc2)CC1 | CDC7 with DBF4 | SelectScreen kinase profiling | – | 0.1 µM | – | inhibition | 1% |
| NC(=O)[C@@H](O)C[C@H]1CCc2sc3ncnc(O[C@H]4CC[C@H](N5CCOCC5)CC4)c3c21 | CDC7 with DBF4 | radioisotope kinase | – | 10 µM | – | inhibition | -6% |
| CCn1cc(C(=O)O)c(=O)c2c(N)c(F)c(NC3CCCCC3)cc21 | CDC7 with DBF4 | kinase activity | – | 0.1 µM, with: ATP at Km | – | inhibition | 11% |
| Nc1ncc(-c2cc(-c3cnn(CC(F)(F)F)c3)ncc2F)nc1C(=O)NC1CNCC(F)C1 (stereo not drawn) | CDC7 with DBF4 | enzyme activity | – | 1 µM | reference: DMSO control | remaining activity | 100% |
| NC(=O)C[C@H]1CCc2sc3ncnc(O[C@H]4CC[C@H](N5CCOCC5)CC4)c3c21 | CDC7 with DBF4 | radioisotope kinase | – | 10 µM | – | inhibition | -4% |

Excerpt of the above:
| Compound | target | assay | test system | setting | how to read | quantity | value |
| --- | --- | --- | --- | --- | --- | --- | --- |
| O=C(Cc1ccc(OCc2ccccc2)cc1)NC1(C(=O)O)CCN(C(=O)c2ccc(-c3cccc(Cl)c3)cc2)CC1 | CDC7 with cyclin B1 | kinase activity, inhibitor | – | 10 µM, with: ATP at Km | – | remaining activity | 139% |
